{"data": "Measurements gathered from unrelated publications", "note": "Each line is one published result; not all experiments were run side by side. ± marks the error that the study gave."}
{"Compound": "O=C(N/N=C/c1ccc2c(ccc[n+]2Cc2ccccc2)c1)c1cncc(C(=O)N/N=C/c2ccc3c(ccc[n+]3Cc3ccccc3)c2)n1", "target or system": "MYC parallel G4 DNA", "assay": "FRET melting", "setting": "1 µM, DNA 0.2 µM, together with: duplex DNA competitor 10 µM", "endpoint": "ΔTm", "result": "11.4 ± 0.3 °C"}
{"Compound": "Cc1ncsc1-c1ccc(C(C)NC(=O)C2CC(O)CN2C(=O)C(NC(=O)CCCCCCCCCCN2CCCC(Nc3ncc(Cl)c(Nc4ccccc4S(=O)(=O)C(C)C)n3)C2)C(C)(C)C)cc1 (stereo not shown)", "target or system": "22Rv1", "assay": "RNA-seq, refers to: TGIF2 mRNA", "setting": "concentration not given", "how to read": "relative to: DMSO", "endpoint": "log2 fold change", "result": -1.66}
{"Compound": "O=C(N/N=C/c1ccc2c(ccc[n+]2Cc2ccccc2)c1)C(=O)N/N=C/c1ccc2c(ccc[n+]2Cc2ccccc2)c1", "target or system": "hp2 hairpin duplex DNA", "assay": "FRET melting", "setting": "1 µM, together with: ds26 10 µM", "endpoint": "ΔTm", "result": "0.9 ± 0.3 °C"}
{"Compound": "COC1CN([C@H]2CC[C@H]([C@@]3(C)Oc4c(Cl)cc(C(=O)NCc5c(SC)cc(C)[nH]c5=O)c(C)c4O3)CC2)C1", "assay": "RNA-seq, refers to: KIF3C mouse homolog", "test system": "mouse, HT-1376 xenograft, whole blood", "setting": "dose not given", "how to read": "relative to: vehicle", "endpoint": "log2 fold change", "result": 0.345}
{"Compound": "C[n+]1cc(/C=N/NC(=O)c2ccc3ccc4ccc(C(=O)N/N=C/c5cc6ccccc6[n+](C)c5)nc4c3n2)cc2ccccc21", "target or system": "hp2 hairpin duplex DNA", "assay": "FRET melting", "setting": "1 µM", "endpoint": "ΔTm", "result": "1.7 ± 0.7 °C"}
{"Compound": "CNS(=O)(=O)Nc1nccc(Cc2c(C)c3ccc(Oc4ncccc4F)cc3oc2=O)c1F", "target or system": "OV-90", "assay": "cell viability", "setting": "7 days", "endpoint": "IC50", "result": "11.7 nM"}
{"Compound": "CCc1nnc(NC(=O)c2cccc(C(=O)Nc3nnc(CC)s3)n2)s1", "target or system": "Mus musculus", "assay": "gene silencing, high-content imaging", "test system": "LDR reporter GFP cells", "setting": "retest, mean of two runs", "endpoint": "EC50", "result": "20000 nM"}
{"Compound": "C=CC(=O)N1[C@@H](c2ccc3c(c2)OCO3)c2[nH]c3ccccc3c2C[C@H]1C(=O)N1CCN(C)CC1", "target or system": "human cyclin E1 N112C-3xFLAG:CDK2", "assay": "co-IP with TMT proteomics, refers to: DDX17", "setting": "concentration not given, Q92841", "how to read": "relative to: wild type DMSO", "endpoint": "relative co-enrichment", "result": "107%"}
{"Compound": "C=CC(=O)Nc1cccc(Cn2ncc3cnc(Nc4cnn(CCOC)c4)nc32)c1", "target or system": "SRMS human", "assay": "binding, KINOMEscan", "setting": "100 nM", "how to read": "lower = stronger binding", "endpoint": "percent of control", "result": "100%"}
{"Compound": "CN1CCCNC(=O)c2cccc(c2)C(=O)NCCCN(C)CCCNc2cccc3c2C(=O)c2cccc(c2C3=O)NCCC1", "target or system": "SAS", "assay": "RNA-Seq, refers to: RAD18 mRNA", "setting": "1 µM, 6 h", "how to read": "relative to: untreated cells", "endpoint": "log2 fold change", "result": -0.792}
{"Compound": "C[n+]1ccc(/C=N/NC(=O)N/N=C/c2cc[n+](C)c3ccccc23)c2ccccc21", "target or system": "MYC parallel G4 DNA", "assay": "FRET melting", "setting": "1 µM, DNA 0.2 µM, together with: duplex DNA competitor 10 µM", "endpoint": "ΔTm", "result": "3.7 ± 0.2 °C"}
{"Compound": "C(=N\\Nc1nc(-c2ccccn2)nc2ccccc12)/c1ccccc1", "target or system": "Mus musculus", "assay": "gene silencing, high-content imaging", "test system": "LDR reporter GFP cells", "setting": "retest run 2", "endpoint": "AC50", "result": "2510 nM"}
{"Compound": "COC1OC(C)C(OC2OC(C)C(O)C(OC3OC(C)C(OC4OC(C)C(O)C(OC5OC(C)C(OC6OC(C)C(O)C(OC7OC(C)C(O)C(OS(=O)(=O)O)C7OS(=O)(=O)O)C6OS(=O)(=O)O)C(OS(=O)(=O)O)C5OS(=O)(=O)O)C4OS(=O)(=O)O)C(OS(=O)(=O)O)C3OS(=O)(=O)O)C2OS(=O)(=O)O)C(OS(=O)(=O)O)C1OS(=O)(=O)O (stereo not shown)", "test system": "human plasma", "setting": "128 µg/mL", "endpoint": "prothrombin time", "result": "14.7 ± 0.5 s"}
{"Compound": "Nc1ncc(-c2cc(-c3cnn(CC(F)(F)F)c3)ncc2F)nc1C(=O)NC1CNCC(F)C1 (stereo not shown)", "target or system": "CAMK1G", "assay": "KINOMEscan", "setting": "1 µM", "how to read": "relative to: DMSO control", "endpoint": "remaining binding", "result": "100%"}
{"Compound": "O=C(N/N=C/c1ccc(C[n+]2ccccc2)cc1)N/N=C/c1ccc(C[n+]2ccccc2)cc1", "target or system": "hp2 hairpin duplex DNA", "assay": "FRET melting", "setting": "1 µM, together with: ds26 10 µM", "endpoint": "ΔTm", "result": "0.9 ± 0.1 °C"}
{"Compound": "CO[C@@H]1[C@@H](OC(N)=O)[C@@H](O)[C@H](Oc2ccc3c(O)c(NC(=O)c4ccc(O)c(CC=C(C)C)c4)c(=O)oc3c2C)OC1(C)C", "target or system": "DLD-1 BRCA2-/-", "setting": "75 µM, mean of replicates A, B", "how to read": "relative to: untreated", "endpoint": "colony survival", "result": "22.1%"}
